Experimental data from different studies.
Compare with care: the assays were run in different laboratories. Numbers after ± are the reported error.

| Structure (SMILES) | species | matrix | route | dose | time | tissue uptake [%ID/g] |
| --- | --- | --- | --- | --- | --- | --- |
| N=C(N)NCCC[C@@H]1NC(=O)[C@H](CCCCNC(=O)CC[C@H](NC(=O)CC[C@H](NC(=O)CN2CCN(CC(=O)O)CCN(CC(=O)O)CCN(CC(=O)O)CC2)C(=O)N[C@@H](CCC(=O)NCCCC[C@@H]2NC(=O)[C@@H](Cc3ccccc3)NC(=O)[C@H](CC(=O)O)NC(=O)CNC(=O)[C@H](CCCNC(=N)N)NC2=O)C(=O)NCCCC[C@@H]2NC(=O)[C@@H](Cc3ccccc3)NC(=O)[C@H](CC(=O)O)NC(=O)CNC(=O)[C@H](CCCNC(=N)N)NC2=O)C(=O)NCCCC[C@@H]2NC(=O)[C@@H](Cc3ccccc3)NC(=O)[C@H](CC(=O)O)NC(=O)CNC(=O)[C@H](CCCNC(=N)N)NC2=O)NC(=O)[C@@H](Cc2ccccc2)NC(=O)[C@H](CC(=O)O)NC(=O)CNC1=O [indium-111 labelled] | female athymic nu/nu mice | lungs | intravenous |  | 0.5 h | 4.29 ± 1.26 |
| N=C(N)NCCC[C@@H]1NC(=O)[C@H](CCCCNC(=O)CCOCCOCCOCCOCCNC(=O)CC[C@H](NC(=O)CCOCCOCCOCCOCCNC(=O)CN2CCN(CC(=O)O)CCN(CC(=O)O)CCN(CC(=O)O)CC2)C(=O)NCCOCCOCCOCCOCCC(=O)NCCCC[C@@H]2NC(=O)[C@@H](Cc3ccccc3)NC(=O)[C@H](CC(=O)O)NC(=O)CNC(=O)[C@H](CCCNC(=N)N)NC2=O)NC(=O)[C@@H](Cc2ccccc2)NC(=O)[C@H](CC(=O)O)NC(=O)CNC1=O [copper-64 labelled] | athymic nude mouse, female | whole blood | iv |  | 0.5 h | 0.87 ± 0.22 |
| CCCC[C@H](NC(=O)CCCCCCCNC(=O)CN1CCN(CC(=O)O)CCN(CC(=O)O)CC1)C(=O)N[C@H]1CC(=O)NCCCC[C@@H](C(N)=O)NC(=O)[C@H](Cc2c[nH]c3ccccc23)NC(=O)[C@H](CCCNC(=N)N)NC(=O)[C@@H](Cc2ccccc2)NC(=O)[C@H](Cc2c[nH]cn2)NC1=O [copper-64 labelled] | C57 mice | kidney | intravenous | 0.37 MBq | 2 h | 3.29 ± 0.61 |
| CSCC[C@H](NC(=O)[C@H](CC(C)C)NC(=O)[C@H](Cc1c[nH]cn1)NC(=O)CNC(=O)[C@@H](NC(=O)[C@H](C)NC(=O)[C@H](Cc1c[nH]c2ccccc12)NC(=O)[C@H](CCC(N)=O)NC(=O)CCOCCOCCOCCOCCNC(=O)CN1CCN(CC(=O)O)CCN(CC(=O)O)CCN(CC(=O)O)CC1)C(C)C)C(N)=O [indium-111 labelled] | Swiss nu/nu mouse, male, PC-3 tumour xenograft | pancreas | intravenous | 10 pmol | 4 h | 17.5 ± 2.8 |
| Cc1cc(O)cc(C)c1C[C@H](NC(=O)[C@@H]1CCCN1C(=O)[C@H](CCCNC(=N)N)NC(=O)[C@H](CCCNC(=N)N)N(C)C(=O)[C@@H]1CCCN1C(=O)[C@H](CCCCN)NC(=O)[C@@H](CC(C)C)NC(=O)[C@@H](CC(C)C)NC(=O)[C@@H](CC(C)C)NC(=O)[C@@H](CC(C)C)NC(=O)CN1CCN(CC(=O)O)CCN(CC(=O)O)CCN(CC(=O)O)CC1)C(=O)N[C@H](C(=O)N[C@@H](CC(C)C)C(=O)O)C(C)(C)C [lutetium-177 labelled] | CF-1 mouse | liver | iv | 370 kBq | 1 h | 6.65 ± 0.71 |
| N=C(N)NCCC[C@@H]1NC(=O)[C@H](CCCCNC(=O)CNC(=O)CNC(=O)CNC(=O)CC[C@H](NC(=O)CNC(=O)CNC(=O)CNC(=O)CC[C@H](NC(=O)CN2CCN(CC(=O)O)CCN(CC(=O)O)CCN(CC(=O)O)CC2)C(=O)NCC(=O)NCC(=O)NCC(=O)N[C@@H](CCC(=O)NCC(=O)NCC(=O)NCC(=O)NCCCC[C@@H]2NC(=O)[C@@H](Cc3ccccc3)NC(=O)[C@H](CC(=O)O)NC(=O)CNC(=O)[C@H](CCCNC(=N)N)NC2=O)C(=O)NCC(=O)NCC(=O)NCC(=O)NCCCC[C@@H]2NC(=O)[C@@H](Cc3ccccc3)NC(=O)[C@H](CC(=O)O)NC(=O)CNC(=O)[C@H](CCCNC(=N)N)NC2=O)C(=O)NCC(=O)NCC(=O)NCC(=O)NCCCC[C@@H]2NC(=O)[C@@H](Cc3ccccc3)NC(=O)[C@H](CC(=O)O)NC(=O)CNC(=O)[C@H](CCCNC(=N)N)NC2=O)NC(=O)[C@@H](Cc2ccccc2)NC(=O)[C@H](CC(=O)O)NC(=O)CNC1=O [indium-111 labelled] | female athymic nu/nu mice | muscle | intravenous | 111 kBq | 72 h | 0.45 ± 0.06 |
| CC(C)C[C@H](NC(=O)CN1CCN(CC(=O)O)CCN(CC(=O)O)CC1)C(=O)N[C@@H](CC(C)C)C(=O)N[C@@H](CC(C)C)C(=O)N[C@@H](CC(C)C)C(=O)N[C@@H](CCCNC(=N)N)C(=O)N[C@H](C(=O)N[C@@H](CCCCN)C(=O)N[C@@H](CCCNC(=N)N)C(N)=O)C(C)C [copper-64 labelled] | CD1 mouse, male | spleen | intravenous |  | 15 min | 2.8 ± 0.06 |
| CCCC[C@H](NC(=O)CNC(=O)CNC(=O)CN1CCN(CC(=O)O)CCN(CC(=O)O)CCN(CC(=O)O)CC1)C(=O)N[C@H]1CC(=O)NCCCC[C@@H](C(N)=O)NC(=O)[C@H](Cc2c[nH]c3ccccc23)NC(=O)[C@H](CCCNC(=N)N)NC(=O)[C@@H](Cc2ccccc2)NC(=O)[C@H](Cc2c[nH]cn2)NC1=O [lutetium-177 labelled] | C57 mouse, female | spleen | intravenous | 0.037 MBq | 24 h | 0.24 ± 0.1 |
| N=C(N)NCCC[C@@H]1NC(=O)[C@H](CCCCNC(=O)CNC(=O)CNC(=O)CNC(=O)CC[C@H](NC(=O)CNC(=O)CNC(=O)CNC(=O)CN2CCN(CC(=O)O)CCN(CC(=O)O)CCN(CC(=O)O)CC2)C(=O)NCC(=O)NCC(=O)NCC(=O)NCCCC[C@@H]2NC(=O)[C@@H](Cc3ccccc3)NC(=O)[C@H](CC(=O)O)NC(=O)CNC(=O)[C@H](CCCNC(=N)N)NC2=O)NC(=O)[C@@H](Cc2ccccc2)NC(=O)[C@H](CC(=O)O)NC(=O)CNC1=O [indium-111 labelled] | female athymic nu/nu mice | U87MG tumour | intravenous | 111 kBq | 0.5 h | 10.2 ± 3.61 |
| CCCC[C@H](NC(=O)COCCOCCNC(=O)CN1CCN(CC(=O)O)CCN(CC(=O)O)CC1)C(=O)N[C@H]1CC(=O)NCCCC[C@@H](C(N)=O)NC(=O)[C@H](Cc2c[nH]c3ccccc23)NC(=O)[C@H](CCCNC(=N)N)NC(=O)[C@@H](Cc2ccccc2)NC(=O)[C@H](Cc2c[nH]cn2)NC1=O [copper-64 labelled] | C57 mice | pancreas | intravenous | 0.37 MBq | 4 h | 0.17 ± 0.11 |

Some of these lines once more:
| Structure (SMILES) | species | matrix | route | dose | time | tissue uptake [%ID/g] |
| --- | --- | --- | --- | --- | --- | --- |
| CSCC[C@H](NC(=O)[C@H](CC(C)C)NC(=O)[C@H](Cc1c[nH]cn1)NC(=O)CNC(=O)[C@@H](NC(=O)[C@H](C)NC(=O)[C@H](Cc1c[nH]c2ccccc12)NC(=O)[C@H](CCC(N)=O)NC(=O)CCOCCOCCOCCOCCNC(=O)CN1CCN(CC(=O)O)CCN(CC(=O)O)CCN(CC(=O)O)CC1)C(C)C)C(N)=O [indium-111 labelled] | Swiss nu/nu mouse, male, PC-3 tumour xenograft | pancreas | intravenous | 10 pmol | 4 h | 17.5 ± 2.8 |
